Measured values collected from several papers.
Numbered parts are unrelated; each lists some results of a single study. Positions count from the first letter of the parent shown.

Block 1
Target: Centromere-binding protein 1, full length, His-tagged (CBF1, Saccharomyces cerevisiae, UniProt P17106, residues 1-351)
UniProt P17106, sequence (whole entry, looked up): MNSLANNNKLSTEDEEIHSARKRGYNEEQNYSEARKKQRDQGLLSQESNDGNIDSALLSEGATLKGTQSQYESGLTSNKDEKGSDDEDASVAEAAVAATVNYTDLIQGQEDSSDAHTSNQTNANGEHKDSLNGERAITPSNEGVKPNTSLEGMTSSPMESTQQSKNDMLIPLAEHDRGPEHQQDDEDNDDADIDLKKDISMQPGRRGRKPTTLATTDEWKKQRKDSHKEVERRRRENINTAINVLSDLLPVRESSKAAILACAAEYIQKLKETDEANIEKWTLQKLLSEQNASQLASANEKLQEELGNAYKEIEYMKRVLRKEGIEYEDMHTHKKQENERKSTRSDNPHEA
Method: competition protein-binding microarray
Molecule type: double-stranded DNA, one strand shown
Sample: in vitro
Concentration: 2 µM
Notes: whole 60-bp probe, lowest competitor level
With: Pho4 competitor, 0.05 µM
Direction: higher = stronger binding
All sequences stand within: … GTCTTGATTCGCTTGACGCTGCTG
Sequence	fluorescence intensity
CTTCTGTAAATTTGCTCGGTGGGTGGACGCGCCCCG	91.8 a.u.
AGTTGATTTTTTTTTCTCGTGGTGAGAGATAAATAA	99.8 a.u.
AAAGCGGTAATTTGGATGGTGGGTGCAGATATCTAT	72.8 a.u.
CTACGGAATAGCGGCCACGTTTCCGTAGGTTACTAT	127 a.u.
GTCCCCCCGCCACACATCGTGGAATAATCGCTATCG	128 a.u.
CTTCTGTAAATTTTTCACGTGCCTTGACGCGCCCCG	953 a.u.
GTTCTTGCGATGAGCTGCCCTTGCAAATTTTTCACC	89.2 a.u.
AAGTTCGCCAAGTTACACATGGGTACTGATGATGTC	95.1 a.u.
CGTCCTAGTGATTGCTCCGTGGGTGCCATGAGGAAG	79.3 a.u.
TCACGGAACAACCGTCAGCGGAGATTAGAGAAGCCT	72.4 a.u.
TCCGAAATGCGATAAGTCGTGATGGGGTTACCTCGA	80.8 a.u.
AACCGTACTTGATTTCACCTGCGGGCTTCAAGTCGG	67.7 a.u.
CTAACGAAGGTTTGTAATGTGGGTGACAAGCCAAGT	73.8 a.u.
CTTTCCCGATCTTGCTAGGTGGGTGTAGCACATTTG	68.6 a.u.

Block 2
Target: RNA binding protein fox-1 homolog 2, RRM domain, GST-SBP tag (RBFOX2, Homo sapiens, UniProt O43251-10, residues 100-194)
Method: RNA Bind-n-Seq
Molecule type: RNA
Sample: in vitro
Concentration: 365 nM
Notes: natural RNA segment, single round, ends assumed
Relative to: no-protein control
Direction: higher = stronger binding
All sequences stand within: GGGAGUUCUACAGUCCGACGAUC … UGGAAUUCUCGGGUGCCAA
Construct (chain): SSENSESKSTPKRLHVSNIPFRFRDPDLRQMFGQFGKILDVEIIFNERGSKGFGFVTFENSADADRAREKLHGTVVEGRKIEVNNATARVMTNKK
Sequence	RBNS enrichment (R)
GAUAUUGCCCAUGAUUCUCACUUUUUCUUUGCCUGGCAUCUAAGCAGGAACCCAUUGUGGAGUAGACUCUCUUCUUCUAUGGAGCCUCUGACAUGGGGAGCAAUGCUAAG	0.866
GGCUCUAAGAGAGUAAUCAUAAAAUACCUUAGAUAAAAUUGCACUAUGGAAUUUUCAUUGAGUAUGUUUAAAUUAUUGGCUUGUCUACUAAUACACAUCUGCUUCAAAAU	0.553
UUCCUGGGGUCCUAAUUAACUCGGCCUACUCAAUGAGAACGUAACAUGCUUAUUGAAUGUAUAGCCGUGUUUGCUGAGUAACCUGUCCCACCGUUGAGGCUAUCUGAAGU	0.362
AUCUUCAGGACUGCAAUCAUUCUGCCUAUAGGUCAGAACUGAGCUAGGAUGGAAUCUUGAAACAUAUUCUGACCUCCAAUGAAAAGAUAUGGGCAUACAAGGUGAGUUGU	0.361
UCAUUGUUCUGCGAUUUAUUUUAGAGAUUGUCCAUGAGCACUGAACAAGGAGAAGAAGUUUCUUGUUGCUUUACAACAGUGUGUGCUAAGUGCUGGACUUGGCCAUGGGU	0.734
CCCACUGCACACUUGCUGUGUACAAUGACUGAGCCCUUUCUUGUAGUUUGUUUCCUUGUUUGAGAGGUGUGCAUGCGACCGUGGCUUUUCCCAAAGUUUCUGACUUUGUG	2.73
UGAGCCCAAAUUCAGGAUUGGUUCAGUGGCAGCAAUGAAGUUGCCAUUUAAAUUUGUUCAUAGCCUACAUCACCAAGGUCUCUGUGUCAAACCUGUGGCCACUCUAUAUG	0.286
GUCUUAAAGAGUUCAAAACCUUGGAACCCAGUUUUCUCACUACGUCUAUAAAGGCCAUUACAGACCCAAGGCUGUUUUGCAGUUUUCAUAUGUUGUUUGCUGAAGUCAUU	0.555
UUCUUAGUUUUCUUAACCAUGCUUUAUGUCUUGUCCAGGUAUGUCAGUCCAGUUUCCAUGACGUACCCCCUUCAGAAGUUUCUGACAUUGGUUUGAGGUUUUCUGACACU	1.12
UUGCAAUUUGCUUUGAGACCUUCCCUGUCCUGGGUACUAGGUGCUAUGAAGCCAGCUGACAGAAGCAUCACAUGUCUUGGGCUGAUGCCGCUACCCGGUUCAUUUAUUUG	1.24
AAGUGUCUCAGUCCACCUGAGCUGCCAUCCAGGGAUGCCAUCUGUGGGCACGCUGUGGGCAGGUGGGAGCUUGAUUCUCAGCACUUGGGGGAUCUGUUGUGUACGUGGAG	1.05
UCUCAGUCGAUGAGCCCUCGUCUGACUGACCAGAGUGGCCCAGCUUCUAUUCAAUUGGGAAAAUUUGAACCAAAGCAGAUUUCUUCAGGGCUGAGGGUCUCCAACCGAUG	0.387

Block 3
Target: ATF5, bZIP domain (human)
Method: DHFR protein complementation
Sample: yeast
Notes: single substitutions, most at no-binding floor
Relative to: wild-type JUN-FOS pair
Direction: higher = stronger binding
Starting sequence: JUN, bZIP domain (human); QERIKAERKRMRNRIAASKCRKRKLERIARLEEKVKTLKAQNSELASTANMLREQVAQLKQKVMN; partner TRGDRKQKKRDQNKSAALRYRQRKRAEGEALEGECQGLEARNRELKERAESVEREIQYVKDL
Variant	binding fitness
N42Y	-1.52 natural log
Q58P	-1.49 natural log
A57N	-1.46 natural log
M51G	-1.29 natural log
L38D	-1.53 natural log
Q55M	-1.2 natural log
T48A	-1.35 natural log
R30M	-1.41 natural log
T37L	-1.34 natural log
Q41E	-1.33 natural log
E54F	-1.41 natural log
E44H	-1.49 natural log
A49L	-1.33 natural log
R53T	-1.58 natural log
A46S	-1.35 natural log

Block 4
Target: Ras GTPase-activating protein-binding protein 1, RRM domain (G3BP1, Homo sapiens, UniProt Q13283)
UniProt Q13283, sequence (whole entry, looked up): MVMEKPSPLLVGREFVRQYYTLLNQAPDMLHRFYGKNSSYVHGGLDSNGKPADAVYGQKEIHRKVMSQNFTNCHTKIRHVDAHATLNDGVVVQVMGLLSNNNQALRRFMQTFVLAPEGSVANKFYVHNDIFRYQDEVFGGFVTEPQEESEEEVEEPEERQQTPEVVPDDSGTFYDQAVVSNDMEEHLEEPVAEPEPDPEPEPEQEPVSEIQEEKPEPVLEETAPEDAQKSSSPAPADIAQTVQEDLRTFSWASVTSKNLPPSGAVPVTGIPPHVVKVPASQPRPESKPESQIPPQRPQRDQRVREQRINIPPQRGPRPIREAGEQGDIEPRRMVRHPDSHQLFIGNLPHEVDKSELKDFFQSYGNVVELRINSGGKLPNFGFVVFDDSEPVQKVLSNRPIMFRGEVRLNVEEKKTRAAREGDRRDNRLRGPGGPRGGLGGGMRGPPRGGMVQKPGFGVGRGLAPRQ
Method: RNA Bind-n-Seq
Molecule type: RNA
Sample: in vitro
Concentration: 1 µM
Notes: whole 134-nt RNA, ends assumed
With: 150 mM KCl
Relative to: input library
Direction: higher = stronger binding
All sequences stand within: GGGAGUUCUACAGUCCGACGAUC … UGGAAUUCUCGGGUGUCAAGG
Sequence	log2 enrichment
CACAGACAACACGCACCCACACAGACACAGAGGGAAGGGGUUGGGAUGGGGACAGGGUGCACAGCAGGGCGGGGUAGGACCCCAGCCCAU	-0.337
CCUCAAGUCCUGUGCUACACAUCGUAUGUACCGAAUCGGGGCGGGCGGCGGGGAAAGUAUUAUGUUACGCCGUUCGGAUCUGCACUUCCA	-0.16
UUUGAGGUCAAACGCCGCGGGGAACUGCAGCUGAUUAAGAUCUUCCAAUCCUCGGUGUUUGAGGCCUUCCUCAAGGGCAGCACGCUGGAA	-0.286
ACCAUGCAGGUGGGCAUCUUAAAGAAGUGGGGCAAGGGGGGGAUAGGGAGGGGGGUAACACUUUGGGAACAGGUGGUCCCAGGUCGUUUC	-0.417
UUCAAGGAAAAACAAGAGGAGCAGGCUCGCCUCCUUGAUGAACUGGCAGGCAAGCUACAAAGCCUAGACCUUUCAGCCGCUGCCGAAAUG	-0.151
CUCAAGUCCUGUGCUACACAUCGUAUGUACCGAAUCGGGUUGGUUGGGGUUGGGAAAGUAUUAUGUUACGCCGUUCGGAUCUGCACUUCC	0.268
CUGUGCUACACAUCGUAUGUACCGAAUCGGGUUUUUUUGGGUUUUUUUGGGUUUUUUUGGGAAAGUAUUAUGUUACGCCGUUCGGAUCUG	-0.143
UGGGAGGAGGAUUUUGUUUAUUUUUUUAGCUCAUUUCCAGGGGUGGGAAUUUUUUUUUAAUAUGUGUCAUGAAUAAAGUUGUUUUUGAAA	1.69
GCAGAAAGUAAAAACAAAUGGAAAUGCUUCGGAUAGUGGCAGGGGUGGGGGUUGCUAAGGAAAGGGUGGGAUGGGAGUGGGUAAAGAGUU	1.13
CCUGUGCUACACAUCGUAUGUACCGAAUCGGGUUUUUUGGGGUUUUUUGGGUUUUUUGGGAAAGUAUUAUGUUACGCCGUUCGGAUCUGC	-0.204
AGUCCUGUGCUACACAUCGUAUGUACCGAAUCGGGUUUUUGGGUUUGGGUUUUUGGGAAAGUAUUAUGUUACGCCGUUCGGAUCUGCACU	0.319
UCCUGUGCUACACAUCGUAUGUACCGAAUCGGGGUUUUUUGGUUUUUUGGGUUUUUUGGGAAAGUAUUAUGUUACGCCGUUCGGAUCUGC	-0.168
AAGUCCUGUGCUACACAUCGUAUGUACCGAAUCAAACCCAAAUUUUUAAACCCAAAAAAGUAUUAUGUUACGCCGUUCGGAUCUGCACUU	-0.493
UGGGAGGUGGAUUUUGUUUAUUUUUUUAGCUCAUUGCCAGGGGUGGGAAUUUUUUUUUAAUAUGUGUCAUGAAUAAAGUUGUUUUUGAAA	1.8

Block 5
Target: CCNE1, cyclin fold, Cln2 fusion (human)
Method: yeast growth competition, sequencing
Sample: yeast
Notes: weak parent motif
Relative to: not given
Direction: higher = stronger binding
Starting sequence: SAMHD1 docking peptide (human); ASKSRVQLFKDDP
Variant	normalised enrichment score
V6L	0.203
F9E	0.0678
K3N	-0.0988
Q7G	0.0543
Q7C	-0.0971
Q7R	0.54
V6W	-0.155
F9G	0.0183
R5Y	0.0181
K3C	0.344
R5Q	-0.119
F9Q	-0.0649
F9T	-0.294
K3S	0.139
D11Q	-0.217
L8Q	-0.0617
F9C	0.0677
K10E	0.116
L8I	-0.0701
V6C	0.0141
D11K	0.675
S2K	-0.0969
L8F	-0.0838
K10L	0.127

Some of these lines once more (block 4):
Sequence	log2 enrichment
UUCAAGGAAAAACAAGAGGAGCAGGCUCGCCUCCUUGAUGAACUGGCAGGCAAGCUACAAAGCCUAGACCUUUCAGCCGCUGCCGAAAUG	-0.151
CUCAAGUCCUGUGCUACACAUCGUAUGUACCGAAUCGGGUUGGUUGGGGUUGGGAAAGUAUUAUGUUACGCCGUUCGGAUCUGCACUUCC	0.268
CUGUGCUACACAUCGUAUGUACCGAAUCGGGUUUUUUUGGGUUUUUUUGGGUUUUUUUGGGAAAGUAUUAUGUUACGCCGUUCGGAUCUG	-0.143
UGGGAGGAGGAUUUUGUUUAUUUUUUUAGCUCAUUUCCAGGGGUGGGAAUUUUUUUUUAAUAUGUGUCAUGAAUAAAGUUGUUUUUGAAA	1.69
GCAGAAAGUAAAAACAAAUGGAAAUGCUUCGGAUAGUGGCAGGGGUGGGGGUUGCUAAGGAAAGGGUGGGAUGGGAGUGGGUAAAGAGUU	1.13
CCUGUGCUACACAUCGUAUGUACCGAAUCGGGUUUUUUGGGGUUUUUUGGGUUUUUUGGGAAAGUAUUAUGUUACGCCGUUCGGAUCUGC	-0.204
AGUCCUGUGCUACACAUCGUAUGUACCGAAUCGGGUUUUUGGGUUUGGGUUUUUGGGAAAGUAUUAUGUUACGCCGUUCGGAUCUGCACU	0.319
UCCUGUGCUACACAUCGUAUGUACCGAAUCGGGGUUUUUUGGUUUUUUGGGUUUUUUGGGAAAGUAUUAUGUUACGCCGUUCGGAUCUGC	-0.168
AAGUCCUGUGCUACACAUCGUAUGUACCGAAUCAAACCCAAAUUUUUAAACCCAAAAAAGUAUUAUGUUACGCCGUUCGGAUCUGCACUU	-0.493
